Results of several laboratories.
Each numbered part is a random draw from the data of one study; scales do not carry over between parts.
UniProt P54760, sequence (whole entry, looked up): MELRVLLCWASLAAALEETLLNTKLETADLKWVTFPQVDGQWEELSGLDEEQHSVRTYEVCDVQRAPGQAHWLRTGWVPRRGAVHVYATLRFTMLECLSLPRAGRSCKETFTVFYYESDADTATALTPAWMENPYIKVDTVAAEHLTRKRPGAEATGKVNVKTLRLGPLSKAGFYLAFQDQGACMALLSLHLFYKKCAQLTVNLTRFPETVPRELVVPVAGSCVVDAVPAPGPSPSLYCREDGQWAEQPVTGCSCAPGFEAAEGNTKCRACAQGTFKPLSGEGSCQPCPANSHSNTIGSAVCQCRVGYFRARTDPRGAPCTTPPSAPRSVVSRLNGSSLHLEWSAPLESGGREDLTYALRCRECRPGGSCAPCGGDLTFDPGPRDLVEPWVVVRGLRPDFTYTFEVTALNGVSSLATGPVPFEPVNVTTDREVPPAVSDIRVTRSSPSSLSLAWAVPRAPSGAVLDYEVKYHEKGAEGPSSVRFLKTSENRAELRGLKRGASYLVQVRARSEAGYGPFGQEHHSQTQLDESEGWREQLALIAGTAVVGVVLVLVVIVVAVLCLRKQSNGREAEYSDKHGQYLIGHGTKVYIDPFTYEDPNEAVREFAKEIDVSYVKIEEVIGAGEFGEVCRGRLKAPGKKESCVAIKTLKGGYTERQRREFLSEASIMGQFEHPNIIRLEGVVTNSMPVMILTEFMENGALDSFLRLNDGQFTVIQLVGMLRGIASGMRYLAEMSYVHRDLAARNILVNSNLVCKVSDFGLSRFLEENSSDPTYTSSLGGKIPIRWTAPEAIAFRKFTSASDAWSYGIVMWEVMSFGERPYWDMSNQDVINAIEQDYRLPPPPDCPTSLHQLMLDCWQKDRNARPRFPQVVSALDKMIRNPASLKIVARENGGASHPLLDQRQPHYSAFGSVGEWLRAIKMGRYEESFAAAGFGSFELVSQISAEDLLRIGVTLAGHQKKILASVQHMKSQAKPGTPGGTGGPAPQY

Study 1 — technique: aptamer microarray, sandwich; molecule type: DNA with 2'F-ANA; sample: in vitro; concentration: 200 nM; with: Cy3 exosite-II aptamer, 400 nM; reading: higher = stronger binding; oligonucleotide: GGTTGGTGTGGTTGG
Target: Prothrombin, mature alpha-thrombin (F2, Homo sapiens, UniProt P00734)
Setting: whole 15-mer aptamer, many near background
For `2'F-ANA at 4 5 6 7 8 11 14`, “mean fluorescence intensity” read 92.5 a.u.
Under “mean fluorescence intensity”, `2'F-ANA at 1 3 4 5 6 7 9 12 13 15` is recorded as 108 a.u.
`2'F-ANA at 1 2 4 5 6 8 11 12 13 15`: “mean fluorescence intensity” 61.5 a.u.
`2'F-ANA at 2 3 5 6 8 11 12`: “mean fluorescence intensity” 183 a.u.
Under “mean fluorescence intensity”, `2'F-ANA at 2 3 4 5 11 13 14 15` is recorded as 87.9 a.u.
Under “mean fluorescence intensity”, `2'F-ANA at 1 5 6 8 14 15` is recorded as 47.7 a.u.
`2'F-ANA at 4 6 7 10 11 12 13 14 15` — result for “mean fluorescence intensity”: 62.2 a.u.
`2'F-ANA at 1 3 5 7 9 10 12 13`: “mean fluorescence intensity” 48.2 a.u.

Study 2 — technique: protein-binding microarray; molecule type: double-stranded DNA, one strand shown; sample: in vitro; concentration: 250 nM; setting: 60-bp whole probe; with: salmon DNA 0.4 mg/ml; relative to: random background probes; reading: higher = stronger binding; constant ends, left off below: GCCTAGCAC … GTCTTGATTCGCTTGACGCTGCTG
Target: Interferon regulatory factor 5, full length, phosphomimetic (IRF5, Homo sapiens, UniProt Q13568-2, residues 1-514, K96S/S451D/S453D/S456D/S462D)
`TCAGGCTTCTATGTAGTACTGTGCTAG` has a log fluorescence of -0.0483 z-score.
For `ATAGGTATCGGTCTCGGTTAGTGCTAG`, the log fluorescence was 6.35 z-score.
For `CAGTAGATGGCGCCTGAGAGGTGCTAG`, the log fluorescence was -0.541 z-score.
For `TTAGGTTTCGGTCTCGGTTGGTGCTAG`, the log fluorescence was 10.3 z-score.
`TTAAAACTGAGACTGGATTAGTGCTAG` has a log fluorescence of -0.126 z-score.
For `GTAGATTCCAGTTTCGATTAGTGCTAG`, the log fluorescence was 9.36 z-score.
`GACGGTTTCGGCTTTCGGGACGTGCTA` has a log fluorescence of 7.64 z-score.
`GAGGATTTCGGGACTGGAGACGTGCTA` has a log fluorescence of 0.99 z-score.

Study 3 — target: UBE2G2 UBC core domain (UniProt P60604); technique: yeast two-hybrid; sample: yeast; setting: mostly zero background; relative to: not given; reading: higher = stronger interaction
B1: VPS41 RING domain (UniProt P49754); chain KGVLVDEENICESCLSPILPSDAAKPFSVVVFHCRHMFHKECLPMPSMNSAAQFCNICSAKNRGPGSAI
B2: NEURL1 RING domain (UniProt O76050); chain VTPGLGQWSDECTICYEHAVDTVIYTCGHMCLCYACGLRLKKALHACCPICRRPIKDIIKT
B3: SH3RF2 RING domain (UniProt Q8TEC5); chain DDLTLLDLLECPVCFEKLDVTAKVLPCQHTFCKPCLQRVFKAHKELRCPECRTPVFSNIEAL
B4: MKRN1 RING domain (UniProt Q9UHC7); chain FAVQRSKDMVCGICMEVVYEKANPSERRFGILSNCNHTYCLKCIRKWRSAKQFESKIIKSCPECRITSNFVIPSE
B5: TRIML1 RING domain (UniProt Q8N9V2); chain LMENLREELTCFICLDYFSSPVTTECGHSFCLVCLLRSWEEHNTPLSCPECWRTLEGPHFQS
Target sequence (chain): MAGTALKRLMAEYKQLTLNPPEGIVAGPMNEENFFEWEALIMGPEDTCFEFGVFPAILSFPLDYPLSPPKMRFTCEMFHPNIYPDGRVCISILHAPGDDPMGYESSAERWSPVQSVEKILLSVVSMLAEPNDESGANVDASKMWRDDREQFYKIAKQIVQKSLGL
Under “lacZ reporter activity”, `VEPSEENSKDCVVCQNGTVNWVLLPCRHTCLCDGCVKYFQQCPMCRQFVQESFALC (CGRRF1 RING domain (UniProt Q99675))` is recorded as 0.
Under “lacZ reporter activity”, `B1 (VPS41 RING domain)` is recorded as 0.
`B2 (NEURL1 RING domain)`: “lacZ reporter activity” 0.
`B3 (SH3RF2 RING domain)`: “lacZ reporter activity” 0.
Under “lacZ reporter activity”, `B4 (MKRN1 RING domain)` is recorded as 0.
`MPIRALCTICSDFFDHSRDVAAIHCGHTFHLQCLIQWFETAPSRTCPQCRIQVGKRTIIN (TRAIP RING domain (UniProt Q9BWF2))`: “lacZ reporter activity” 0.
Under “lacZ reporter activity”, `B5 (TRIML1 RING domain)` is recorded as 0.
Under “lacZ reporter activity”, `QVDKAVFHMQSVKCLKCQEQKRAVLPCQHAALCELCAEGSECPICQPGRAHTLQS (UNK RING domain (UniProt Q9C0B0))` is recorded as 0.

Mixed results
With `O=C(O)/C=C/c1cc(Br)c(Br)c(Br)c1Br` the remaining activity was 81.2% (Ephrin type-B receptor 4 (EPHB4, Homo sapiens, UniProt P54760); enzyme activity, inhibitor; 0.5 µM; relative to: control).
